Assay results from different studies.
Every numbered part comes from another study and shows a few of its results, in no order. Changes are numbered by the printed parent chain.

Series 1
Target: Sal-like protein 4, full length isoform A (SALL4, Homo sapiens, UniProt Q9UJQ4, residues 1-1053)
Chain of UniProt Q9UJQ4 (whole entry, looked up): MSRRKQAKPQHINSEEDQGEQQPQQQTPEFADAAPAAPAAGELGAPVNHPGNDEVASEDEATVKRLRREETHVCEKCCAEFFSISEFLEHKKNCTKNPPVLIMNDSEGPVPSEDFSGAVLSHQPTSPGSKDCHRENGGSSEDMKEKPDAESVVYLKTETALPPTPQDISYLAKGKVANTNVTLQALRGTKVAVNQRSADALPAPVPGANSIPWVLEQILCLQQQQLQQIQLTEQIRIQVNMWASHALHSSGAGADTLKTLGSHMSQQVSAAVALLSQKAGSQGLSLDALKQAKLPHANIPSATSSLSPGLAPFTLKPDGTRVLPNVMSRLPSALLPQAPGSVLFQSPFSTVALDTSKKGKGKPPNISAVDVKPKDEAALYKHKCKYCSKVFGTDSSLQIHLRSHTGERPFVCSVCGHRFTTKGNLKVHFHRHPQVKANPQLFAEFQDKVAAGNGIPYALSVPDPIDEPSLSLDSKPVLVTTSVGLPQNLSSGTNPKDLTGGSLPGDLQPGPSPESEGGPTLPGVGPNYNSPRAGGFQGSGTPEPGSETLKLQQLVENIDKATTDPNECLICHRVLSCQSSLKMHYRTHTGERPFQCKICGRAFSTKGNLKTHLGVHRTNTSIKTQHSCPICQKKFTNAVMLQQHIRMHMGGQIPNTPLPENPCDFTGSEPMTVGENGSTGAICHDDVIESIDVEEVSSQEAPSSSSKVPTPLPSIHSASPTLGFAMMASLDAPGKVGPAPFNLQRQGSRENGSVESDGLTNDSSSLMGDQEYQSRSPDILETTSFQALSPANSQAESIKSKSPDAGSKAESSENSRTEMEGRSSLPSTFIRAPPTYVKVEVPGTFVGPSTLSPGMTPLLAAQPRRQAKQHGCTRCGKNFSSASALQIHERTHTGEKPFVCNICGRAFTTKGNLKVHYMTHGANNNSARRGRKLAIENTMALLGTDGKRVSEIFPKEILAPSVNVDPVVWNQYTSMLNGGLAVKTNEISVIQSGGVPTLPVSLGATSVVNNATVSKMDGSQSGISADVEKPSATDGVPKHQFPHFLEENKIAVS
Technique: universal PBM
Form: double-stranded DNA, one strand shown
Sample: in vitro
Concentration: 600 nM
Setting: 8-mer, flanks averaged, mean of replicates
Reading: higher = stronger binding
Endpoint: E-score
AGATATGC: 0.175
ACGCAGCC: -0.279
TGAGGCCA: -0.127
CCCAAATC: -0.0101
ACTCCCTC: -0.233
CGATGCTC: -0.259

Series 2
Target: CCND1, cyclin fold, Cln2 fusion (human)
Technique: yeast growth competition, sequencing
Sample: yeast
Setting: weak parent motif
Reference: not given
Reading: higher = stronger binding
Endpoint: normalised enrichment score
Starting sequence: BRCA2 docking peptide (human); PSIKRNLLNEFDR; partner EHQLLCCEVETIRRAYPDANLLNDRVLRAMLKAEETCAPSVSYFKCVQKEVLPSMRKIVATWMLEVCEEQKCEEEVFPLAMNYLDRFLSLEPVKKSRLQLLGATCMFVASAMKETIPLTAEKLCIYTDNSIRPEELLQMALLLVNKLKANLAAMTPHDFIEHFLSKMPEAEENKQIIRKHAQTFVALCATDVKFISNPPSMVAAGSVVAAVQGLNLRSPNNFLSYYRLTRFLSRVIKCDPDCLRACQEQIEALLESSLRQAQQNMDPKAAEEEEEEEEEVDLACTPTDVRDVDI
PSIKHNLLNEFDR [R5H]: -0.529
PSIKMNLLNEFDR [R5M]: 0.737
PSIKRNLNNEFDR [L8N]: -0.484
PSIKPNLLNEFDR [R5P]: 0.588
PSIKRNLLPEFDR [N9P]: 0.639

Series 3
Target: Histone acetyltransferase KAT6A, both winged helices, GST fusion (KAT6A, Homo sapiens, UniProt Q92794, residues 1-181)
Technique: protein binding microarray
Form: double-stranded DNA, one strand shown
Sample: in vitro
Concentration: not given
Setting: 8-mer, flanks averaged, mean of 2 arrays, mostly near background
Reference: not given
Reading: higher = stronger binding
Endpoint: E-score
Target sequence (chain): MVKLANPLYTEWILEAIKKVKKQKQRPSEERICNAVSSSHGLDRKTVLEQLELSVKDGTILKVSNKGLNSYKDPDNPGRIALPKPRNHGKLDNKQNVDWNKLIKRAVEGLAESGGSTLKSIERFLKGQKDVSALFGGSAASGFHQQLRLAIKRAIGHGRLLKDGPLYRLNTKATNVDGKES
CTTCCCAA: -0.208
ATCTGCAA: -0.228
AGATATCG: -0.0446
AATGAAAT: -0.0827
AGCTGTAC: -0.0588
AATAGCAC: -0.0565

Single results of other studies
PhoQ, residues 284 288 289 292 302 303 SVHLDV
fold induction (PhoP, residues 12 14 15 18 19 SEGLL (Escherichia coli, UniProt P23836); Sort-seq, item: YFP reporter; E. coli; PhoQ-PhoP variant library, added: 10 µM Mg2+; reference: high Mg2+ state, higher = stronger signaling): 21.2

For quick reference, copied from above (single results of other studies):
PhoQ, residues 284 288 289 292 302 303 SVHLDV
fold induction (PhoP, residues 12 14 15 18 19 SEGLL (Escherichia coli, UniProt P23836); Sort-seq, item: YFP reporter; E. coli; PhoQ-PhoP variant library, added: 10 µM Mg2+; reference: high Mg2+ state, higher = stronger signaling): 21.2
